Measurements from different studies.
Numbers after ± are the reported error.
TRPA1: Transient receptor potential cation channel subfamily A member 1 (TRPA1, Homo sapiens, UniProt O75762)
UniProt O75762, sequence (whole entry, looked up): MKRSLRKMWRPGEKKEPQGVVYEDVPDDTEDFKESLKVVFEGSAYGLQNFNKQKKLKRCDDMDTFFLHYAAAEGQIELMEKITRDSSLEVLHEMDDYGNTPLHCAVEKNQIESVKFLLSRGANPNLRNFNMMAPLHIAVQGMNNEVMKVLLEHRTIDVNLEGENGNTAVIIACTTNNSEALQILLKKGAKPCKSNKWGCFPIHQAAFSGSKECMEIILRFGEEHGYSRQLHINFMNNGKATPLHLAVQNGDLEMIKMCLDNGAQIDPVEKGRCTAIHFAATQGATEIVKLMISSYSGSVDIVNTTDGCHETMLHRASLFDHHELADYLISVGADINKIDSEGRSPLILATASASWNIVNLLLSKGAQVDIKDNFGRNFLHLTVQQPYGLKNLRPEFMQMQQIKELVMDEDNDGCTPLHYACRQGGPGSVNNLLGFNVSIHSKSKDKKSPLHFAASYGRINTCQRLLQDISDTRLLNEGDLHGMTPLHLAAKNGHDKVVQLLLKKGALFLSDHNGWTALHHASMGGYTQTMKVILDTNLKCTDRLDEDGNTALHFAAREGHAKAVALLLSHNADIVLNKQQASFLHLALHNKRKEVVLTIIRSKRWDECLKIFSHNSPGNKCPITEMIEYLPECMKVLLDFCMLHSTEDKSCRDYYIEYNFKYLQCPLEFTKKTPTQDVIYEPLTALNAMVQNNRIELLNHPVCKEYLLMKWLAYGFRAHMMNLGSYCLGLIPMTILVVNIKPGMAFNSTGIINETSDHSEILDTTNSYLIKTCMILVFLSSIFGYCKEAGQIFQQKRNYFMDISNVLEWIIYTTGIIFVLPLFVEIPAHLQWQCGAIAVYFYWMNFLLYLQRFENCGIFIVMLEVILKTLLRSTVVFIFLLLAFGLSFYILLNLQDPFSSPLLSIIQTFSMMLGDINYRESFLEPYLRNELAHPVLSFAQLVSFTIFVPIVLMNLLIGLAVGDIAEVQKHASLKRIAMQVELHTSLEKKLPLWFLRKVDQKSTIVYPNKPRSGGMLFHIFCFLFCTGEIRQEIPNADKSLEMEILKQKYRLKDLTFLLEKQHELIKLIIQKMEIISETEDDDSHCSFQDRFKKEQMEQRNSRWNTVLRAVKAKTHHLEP
CatSper channel complex: CatSper channel complex (Homo sapiens, UniProt Q7RTX7+Q86XQ3+Q8NEC5+Q96P56)
UniProt Q7RTX7, sequence (whole entry, looked up): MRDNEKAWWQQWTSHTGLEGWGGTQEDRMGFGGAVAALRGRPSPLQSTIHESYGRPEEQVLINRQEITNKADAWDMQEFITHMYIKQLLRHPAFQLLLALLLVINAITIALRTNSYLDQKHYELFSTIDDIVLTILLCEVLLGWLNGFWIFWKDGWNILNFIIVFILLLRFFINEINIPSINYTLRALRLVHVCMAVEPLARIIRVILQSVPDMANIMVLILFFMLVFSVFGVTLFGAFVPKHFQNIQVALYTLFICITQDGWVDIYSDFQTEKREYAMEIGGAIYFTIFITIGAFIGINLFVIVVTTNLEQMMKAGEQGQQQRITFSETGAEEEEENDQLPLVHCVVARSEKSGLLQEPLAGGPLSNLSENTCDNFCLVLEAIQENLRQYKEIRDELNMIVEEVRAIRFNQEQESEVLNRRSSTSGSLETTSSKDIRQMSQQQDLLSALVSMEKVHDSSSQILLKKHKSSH
UniProt Q96P56, sequence (whole entry, looked up): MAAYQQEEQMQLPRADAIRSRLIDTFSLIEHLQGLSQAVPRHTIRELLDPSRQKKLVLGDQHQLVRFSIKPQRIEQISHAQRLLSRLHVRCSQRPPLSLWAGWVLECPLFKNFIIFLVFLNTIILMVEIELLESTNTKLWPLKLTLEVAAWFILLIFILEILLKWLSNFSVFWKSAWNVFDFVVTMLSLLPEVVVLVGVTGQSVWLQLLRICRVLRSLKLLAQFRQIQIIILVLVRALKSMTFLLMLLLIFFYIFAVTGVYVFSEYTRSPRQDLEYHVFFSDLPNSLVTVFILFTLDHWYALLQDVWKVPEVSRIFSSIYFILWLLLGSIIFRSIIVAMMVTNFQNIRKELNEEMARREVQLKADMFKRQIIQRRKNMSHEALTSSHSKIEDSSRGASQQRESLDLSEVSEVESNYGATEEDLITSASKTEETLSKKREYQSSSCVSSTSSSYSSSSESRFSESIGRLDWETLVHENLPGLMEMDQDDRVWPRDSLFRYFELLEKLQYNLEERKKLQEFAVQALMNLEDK
UniProt Q86XQ3, sequence (whole entry, looked up): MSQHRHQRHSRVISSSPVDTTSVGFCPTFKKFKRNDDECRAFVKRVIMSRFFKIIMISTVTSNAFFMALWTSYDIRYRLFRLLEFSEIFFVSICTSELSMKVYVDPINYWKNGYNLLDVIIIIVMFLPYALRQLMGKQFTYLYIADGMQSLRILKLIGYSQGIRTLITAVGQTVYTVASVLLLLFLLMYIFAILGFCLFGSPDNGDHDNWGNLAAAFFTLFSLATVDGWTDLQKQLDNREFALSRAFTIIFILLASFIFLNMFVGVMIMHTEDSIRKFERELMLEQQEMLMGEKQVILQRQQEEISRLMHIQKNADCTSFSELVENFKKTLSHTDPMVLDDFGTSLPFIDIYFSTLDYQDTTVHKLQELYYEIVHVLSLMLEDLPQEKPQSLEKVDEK
UniProt Q8NEC5, sequence (whole entry, looked up): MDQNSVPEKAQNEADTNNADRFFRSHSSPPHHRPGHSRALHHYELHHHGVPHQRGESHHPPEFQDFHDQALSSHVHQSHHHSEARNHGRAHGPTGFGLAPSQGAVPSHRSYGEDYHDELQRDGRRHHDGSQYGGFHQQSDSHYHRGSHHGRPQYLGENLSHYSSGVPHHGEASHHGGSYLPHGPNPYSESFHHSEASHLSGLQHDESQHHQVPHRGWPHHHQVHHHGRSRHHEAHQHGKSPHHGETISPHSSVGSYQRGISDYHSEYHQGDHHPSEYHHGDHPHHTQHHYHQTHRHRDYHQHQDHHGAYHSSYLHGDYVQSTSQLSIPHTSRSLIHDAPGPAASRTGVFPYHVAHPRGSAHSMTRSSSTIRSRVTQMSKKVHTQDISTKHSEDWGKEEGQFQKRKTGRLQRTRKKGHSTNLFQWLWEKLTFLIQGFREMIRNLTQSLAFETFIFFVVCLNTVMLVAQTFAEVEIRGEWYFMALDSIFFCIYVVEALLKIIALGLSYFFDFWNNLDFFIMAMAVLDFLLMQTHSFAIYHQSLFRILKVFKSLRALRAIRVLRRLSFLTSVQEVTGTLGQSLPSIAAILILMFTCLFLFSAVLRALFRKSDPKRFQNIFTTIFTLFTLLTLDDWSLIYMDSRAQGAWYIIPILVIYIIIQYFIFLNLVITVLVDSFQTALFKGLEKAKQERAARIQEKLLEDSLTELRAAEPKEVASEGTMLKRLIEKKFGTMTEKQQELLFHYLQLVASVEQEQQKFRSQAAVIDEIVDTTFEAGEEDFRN
PSMB6: Proteasome subunit beta type-6 (PSMB6, Homo sapiens, UniProt P28072)
UniProt P28072, sequence (whole entry, looked up): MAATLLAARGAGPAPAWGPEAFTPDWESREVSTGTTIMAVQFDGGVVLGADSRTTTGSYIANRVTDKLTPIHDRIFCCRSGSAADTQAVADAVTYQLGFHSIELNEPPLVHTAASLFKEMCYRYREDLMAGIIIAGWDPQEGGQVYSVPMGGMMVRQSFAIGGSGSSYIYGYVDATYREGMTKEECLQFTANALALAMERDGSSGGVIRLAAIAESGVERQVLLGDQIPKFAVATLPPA
UniProt P28065, sequence (whole entry, looked up): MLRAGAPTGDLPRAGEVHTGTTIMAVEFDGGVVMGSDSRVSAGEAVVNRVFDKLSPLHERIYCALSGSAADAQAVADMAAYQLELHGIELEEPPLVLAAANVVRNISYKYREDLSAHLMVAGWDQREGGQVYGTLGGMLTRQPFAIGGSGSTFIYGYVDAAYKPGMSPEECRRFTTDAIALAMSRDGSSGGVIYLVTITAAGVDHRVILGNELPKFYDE
UniProt P34913, sequence (whole entry, looked up): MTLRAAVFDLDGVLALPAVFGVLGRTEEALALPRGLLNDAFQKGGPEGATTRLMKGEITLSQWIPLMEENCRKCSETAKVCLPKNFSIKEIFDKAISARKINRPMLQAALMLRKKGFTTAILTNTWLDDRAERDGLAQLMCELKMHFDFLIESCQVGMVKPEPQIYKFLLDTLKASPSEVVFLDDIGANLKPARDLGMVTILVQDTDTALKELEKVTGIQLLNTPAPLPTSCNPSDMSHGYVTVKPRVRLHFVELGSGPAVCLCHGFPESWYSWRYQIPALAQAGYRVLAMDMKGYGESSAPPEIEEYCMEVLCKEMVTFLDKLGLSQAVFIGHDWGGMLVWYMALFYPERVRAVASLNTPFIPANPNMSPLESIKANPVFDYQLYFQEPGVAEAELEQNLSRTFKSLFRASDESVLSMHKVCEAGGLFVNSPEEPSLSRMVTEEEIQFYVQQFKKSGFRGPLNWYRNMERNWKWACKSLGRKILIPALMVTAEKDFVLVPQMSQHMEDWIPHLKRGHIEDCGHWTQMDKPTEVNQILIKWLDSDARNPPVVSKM
UniProt P00915, sequence (whole entry, looked up): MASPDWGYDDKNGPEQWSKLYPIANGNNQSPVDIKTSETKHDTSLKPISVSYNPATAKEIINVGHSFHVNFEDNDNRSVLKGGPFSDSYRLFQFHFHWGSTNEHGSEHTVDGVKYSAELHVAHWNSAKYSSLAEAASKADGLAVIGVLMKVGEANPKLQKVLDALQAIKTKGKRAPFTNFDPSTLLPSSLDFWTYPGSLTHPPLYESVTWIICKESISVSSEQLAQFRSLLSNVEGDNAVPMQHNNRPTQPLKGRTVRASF

| Structure (SMILES) | target | test | test system | conditions | IC50 [nM] |
| --- | --- | --- | --- | --- | --- |
| CC[C@H](C)[C@@H]1NC(=O)[C@@H]2CCCN2C(=O)[C@@H]2CCCN2C(=O)[C@H]([C@@H](C)CC)NC(=O)[C@H](CO)NC(=O)[C@H](CCCCN)NC(=O)[C@H]([C@@H](C)O)NC(=O)[C@@H]2CSSC[C@H](NC1=O)C(=O)N[C@@H](Cc1ccccc1)C(=O)N1CCC[C@H]1C(=O)N[C@@H](CC(=O)O)C(=O)NCC(=O)N[C@@H](CCCNC(=N)N)C(=O)N2 | Lymphocyte function-associated antigen 3 (CD58, Homo sapiens, UniProt P19256) | Jurkat adhesion to OVCAR-3 cells | Jurkat, OVCAR-3 | 1 h | > 100000 |
| CC(C)(C)NCCCNC(=O)c1ccnc(Br)c1 | Lysine-specific demethylase 5A (KDM5A, Homo sapiens, UniProt P29375) | methyl-lysine reader binding, inhibitor, AlphaScreen | – | – | > 100000 |
| Cc1nc(C)c(C(=O)NC2=Nc3ccccc3C3=NCCN23)s1 | Phosphatidylinositol 4,5-bisphosphate 3-kinase catalytic subunit beta isoform (PIK3CB, Homo sapiens, UniProt P42338) | enzyme activity, inhibitor, radiometric | – | – | 176 |
| CCCC[C@H](C)/C=C(C)/C=C/C(=O)O | TRPA1 | calcium signal, antagonist, fluorescence | – | – | 1470 |
| COc1ccc2nc3ccc(OC)cc3c(SCCCN)c2c1 | Serine/threonine-protein kinase pim-3 (PIM3, Homo sapiens, UniProt Q86V86) | enzyme activity, inhibitor, radiometric | – | – | 10 |
| O=c1c2ccccc2on1-c1ccccc1 | Histone deacetylase 9 (HDAC9, Homo sapiens, UniProt Q9UKV0) | enzyme activity, inhibitor | – | – | > 10000 |
| Cc1ccc(N=C2CC(=O)c3sc(C)nc3C2=O)cc1 | N-lysine methyltransferase KMT5A (KMT5A, Homo sapiens, UniProt Q9NQR1) | enzyme activity, inhibitor, radiometric | – | – | 500 |
| Cc1ccc(-c2nnc3ccc(N4CCC(C(=O)NCCCN5CCCCC5)CC4)nn23)cc1 | CatSper channel complex | calcium influx, inhibitor, FLIPR | human sperm | with: 3 µM progesterone | 68000 ± 6000 |
| CC(C)(C)C(=O)CN1C(=O)[C@H](NC(=O)Nc2cccc(C(=O)NCCOCCOCCOCCC(=O)N[C@H](CCC(=O)O)C(=O)N[C@H](CCC(=O)O)C(=O)N[C@H](CCC(=O)O)C(=O)N[C@H](CCC(=O)O)C(=O)N[C@@H](CCCCNC(=O)C(CNCCN)CNCCN)C(=O)O)c2)CN(C2CCCCC2)c2ccccc21 | Gastrin/cholecystokinin type B receptor (CCKBR, Homo sapiens, UniProt P32239) | ligand displacement, radioligand | – | cell membranes | 1.62 |
| CCC(NC(=O)C(CC(C)C)NC(=O)CCc1ccncc1)C(=O)C(=O)NCc1cc(OC)cc(OC)c1 (centres unmarked) | Calpain-1 catalytic subunit (Capn1, Mus musculus, UniProt O35350) | enzyme activity, inhibitor | mouse pons-cerebellum membranes | with: calcium 20 µM | 442 |
| O=C(COc1cc2ccccc2cc1C(=O)NCc1ccccc1)Nc1ccccc1N1CCCC1=O | Sodium channel protein type 5 subunit alpha (SCN5A, Homo sapiens, UniProt Q14524) | ion current, inhibitor, patch clamp | – | – | 24100 |
| N=C(N)NCCC[C@@H]1NC(=O)[C@H](Cc2c[nH]c3ccccc23)NC(=O)[C@H](CCCNC(=N)N)NC(=O)[C@H](Cc2c[nH]c3ccccc23)NC(=O)[C@H](CCCNC(=N)N)NC(=O)[C@H](Cc2c[nH]c3ccccc23)NC(=O)[C@H](CCCNC(=N)N)NC(=O)[C@H](Cc2c[nH]c3ccccc23)NC(=O)[C@H](CCCNC(=N)N)NC(=O)[C@H](Cc2c[nH]c3ccccc23)NC(=O)[C@H](CCCNC(=N)N)NC(=O)[C@H](Cc2c[nH]c3ccccc23)NC1=O | Protein kinase C alpha type (PRKCA, Homo sapiens, UniProt P17252) | enzyme activity, inhibitor | – | – | 6660 |
| C=C(NC(=O)C(=C)NC(=O)c1csc(C2=NC3c4csc(n4)C4NC(=O)c5csc(n5)C(C(C)(O)C(C)O)NC(=O)C5CSC(=N5)C(=CC)NC(=O)C(C(C)O)NC(=O)c5csc(n5)C3(CC2)NC(=O)C(CC(N)=O)NC(=O)C(=C)NC(=O)C(C)NC(=O)C(C(C)CC)NC2C=Cc3c(C(C)O)cc(nc3C2O)C(=O)OC4C)n1)C(N)=O (centres unmarked) | PSMB6 | caspase-like activity, inhibitor | purified 20S proteasome | 15 min preincubation, 37 °C, with: Ac-Nle-Pro-Nle-Asp-AMC substrate | 860 ± 140 |
| O=C(Nc1ccc(-c2nc(-c3ccccc3)cs2)cc1)C1CCN(CC2CCCCC2)CC1 | Fatty-acid amide hydrolase 1 (FAAH, Homo sapiens, UniProt O00519) | enzyme activity, inhibitor, fluorescence | – | pH 8, with preincubation | 37.6 |
| CC12CC3CC(C)(C1)CC(NC(=O)Nc1ccc(C(=O)N4CCCC(C(N)=O)C4)cc1F)(C3)C2 (centres unmarked) | Bifunctional epoxide hydrolase 2 (EPHX2, Homo sapiens, UniProt P34913) | enzyme activity, inhibitor | – | – | 0.15 |
| CC(=O)Nc1ccc(S(=O)(=O)N2CCN(c3nc4cc(Cl)ccc4o3)CC[C@H]2C)cc1 | Orexin/Hypocretin receptor type 1 (HCRTR1, Homo sapiens, UniProt O43613) | calcium signal, antagonist, fluorescence | – | – | 4520 |
| CC1(c2ccc([C@H]3C[C@@]4(C)[C@@H](CC[C@@]4(O)C(F)(F)C(F)(F)F)[C@@H]4CCC5=CC(=O)CCC5=C43)cc2)COC1 | Progesterone receptor (PGR, Homo sapiens, UniProt P06401) | reporter gene, antagonist, luciferase | – | – | 0.04 |
| N#Cc1c(F)c(Cl)c2nc(SCc3ccccc3)nc(N)c2c1F | M-phase inducer phosphatase 2 (CDC25B, Homo sapiens, UniProt P30305) | enzyme activity, inhibitor, fluorescence | – | – | 2560 |
| Nc1nc(-c2ccc(Br)cc2)cs1 | Capsid scaffolding protein, protease domain (assemblin) (Human cytomegalovirus, UniProt P16753) | protease activity, inhibitor | – | with: ACC tetrapeptide substrate | 414000 |
| C=C(NC(=O)C(=C)NC(=O)c1csc(C2=NC3c4csc(n4)C4NC(=O)c5csc(n5)C(C(C)(O)C(C)O)NC(=O)C5CSC(=N5)C(=CC)NC(=O)C(C(C)O)NC(=O)c5csc(n5)C3(CC2)NC(=O)C(C)NC(=O)C(=C)NC(=O)C(=CC)NC(=O)C(C(C)CC)NC2C=Cc3c(C(C)O)cc(nc3C2O)C(=O)OC4C)n1)C(N)=O (centres unmarked) | PSMB6 | caspase-like activity, inhibitor | purified human 20S proteasome | 37 °C, 15 min preincubation, with: Ac-Nle-Pro-Nle-Asp-AMC | 920 ± 60 |
| O=C(CCCCCCNCc1ccc2c(c1)OCO2)NO | Histone deacetylase 8 (HDAC8, Homo sapiens, UniProt Q9BY41) | enzyme activity, inhibitor, fluorescence | – | – | 270 |
| NC(=NCc1ccccc1)NC(=O)c1nc(Cl)c(N)nc1N | CatSper channel complex | calcium influx, inhibitor, FLIPR | human sperm | with: 3 µM progesterone | 23000 ± 6000 |
| NS(=O)(=O)c1ccc(NC(=O)NN[C@@H]2O[C@H](CO)[C@H](O)[C@H](O)[C@H]2O)cc1 | Carbonic anhydrase 1 (CA1, Homo sapiens, UniProt P00915) | enzyme activity, inhibitor | – | – | 21200 |
| C#CCSc1nc(Nc2ccc(OC)cc2)c(C#N)c(-c2ccccc2)n1 | Lysine-specific histone demethylase 1A (KDM1A, Homo sapiens, UniProt O60341) | enzyme activity, inhibitor, fluorescence | – | – | > 64000 |
| Oc1cc(O)c2c(c1)O[C@H](c1cc(O)c(O)c(O)c1)[C@H](O)C2 | Sucrase-isomaltase, intestinal (Si, Rattus norvegicus, UniProt P23739) | enzyme activity, inhibitor | – | – | 71300 |
| O=C1C2=C(Nc3ccccc3SC2c2ccsc2)c2ccccc21 (racemic) | Dihydroorotate dehydrogenase (quinone), mitochondrial (PFF0160c, Plasmodium falciparum, UniProt Q08210) | enzyme activity, inhibitor, absorbance | – | – | > 20000 |
| CCOc1cncc(-c2ccc(NC(=O)C3(c4ccnc(NS(=O)(=O)C5CC5)n4)CCOCC3)nc2)n1 | CTP synthase 2 (Ctps2, Rattus norvegicus, UniProt Q5U2N0) | enzyme activity, RapidFire mass spectrometry | rat | geometric mean | 470 |
| O=C(N[C@@H](Cc1coc2ccccc12)B(O)O)[C@@H]1C[C@H]2CC[C@@H]1O2 | Proteasome subunit beta type-9 / Proteasome subunit beta type-10 (Homo sapiens, UniProt P28065+P40306) | LMP2 enzyme activity, inhibitor | human immunoproteasome | 2 h preincubation, with: Ac-PAL-R110 | > 30000 |
| O=C(NC[C@@H](Cc1ccc(F)cc1)N1CCC(O)(C(F)(F)F)CC1)C1(c2ccc(Cl)cc2)CC1 | TRPA1 | calcium signal | – | – | 16 |

Repeated from above:
| Structure (SMILES) | target | test | test system | conditions | IC50 [nM] |
| --- | --- | --- | --- | --- | --- |
| CC(C)(C)C(=O)CN1C(=O)[C@H](NC(=O)Nc2cccc(C(=O)NCCOCCOCCOCCC(=O)N[C@H](CCC(=O)O)C(=O)N[C@H](CCC(=O)O)C(=O)N[C@H](CCC(=O)O)C(=O)N[C@H](CCC(=O)O)C(=O)N[C@@H](CCCCNC(=O)C(CNCCN)CNCCN)C(=O)O)c2)CN(C2CCCCC2)c2ccccc21 | Gastrin/cholecystokinin type B receptor (CCKBR, Homo sapiens, UniProt P32239) | ligand displacement, radioligand | – | cell membranes | 1.62 |
| CCC(NC(=O)C(CC(C)C)NC(=O)CCc1ccncc1)C(=O)C(=O)NCc1cc(OC)cc(OC)c1 (centres unmarked) | Calpain-1 catalytic subunit (Capn1, Mus musculus, UniProt O35350) | enzyme activity, inhibitor | mouse pons-cerebellum membranes | with: calcium 20 µM | 442 |
| O=C(COc1cc2ccccc2cc1C(=O)NCc1ccccc1)Nc1ccccc1N1CCCC1=O | Sodium channel protein type 5 subunit alpha (SCN5A, Homo sapiens, UniProt Q14524) | ion current, inhibitor, patch clamp | – | – | 24100 |
| N=C(N)NCCC[C@@H]1NC(=O)[C@H](Cc2c[nH]c3ccccc23)NC(=O)[C@H](CCCNC(=N)N)NC(=O)[C@H](Cc2c[nH]c3ccccc23)NC(=O)[C@H](CCCNC(=N)N)NC(=O)[C@H](Cc2c[nH]c3ccccc23)NC(=O)[C@H](CCCNC(=N)N)NC(=O)[C@H](Cc2c[nH]c3ccccc23)NC(=O)[C@H](CCCNC(=N)N)NC(=O)[C@H](Cc2c[nH]c3ccccc23)NC(=O)[C@H](CCCNC(=N)N)NC(=O)[C@H](Cc2c[nH]c3ccccc23)NC1=O | Protein kinase C alpha type (PRKCA, Homo sapiens, UniProt P17252) | enzyme activity, inhibitor | – | – | 6660 |
| C=C(NC(=O)C(=C)NC(=O)c1csc(C2=NC3c4csc(n4)C4NC(=O)c5csc(n5)C(C(C)(O)C(C)O)NC(=O)C5CSC(=N5)C(=CC)NC(=O)C(C(C)O)NC(=O)c5csc(n5)C3(CC2)NC(=O)C(CC(N)=O)NC(=O)C(=C)NC(=O)C(C)NC(=O)C(C(C)CC)NC2C=Cc3c(C(C)O)cc(nc3C2O)C(=O)OC4C)n1)C(N)=O (centres unmarked) | PSMB6 | caspase-like activity, inhibitor | purified 20S proteasome | 15 min preincubation, 37 °C, with: Ac-Nle-Pro-Nle-Asp-AMC substrate | 860 ± 140 |
